Assay results collected from several papers.
pEC50, pIC50, pKi: −log10 of the molar value.
Target: Adenosine receptor A2a (ADORA2A, Homo sapiens, UniProt P29274)

Structure (SMILES)	assay	conditions	endpoint	value
Nc1ncnc2c1ncn2[C@@H]1O[C@H](C(=O)NCCF)[C@@H](O)[C@H]1O	ligand displacement, radioligand	cell membranes	pKi	6.85
CCNC(=O)C1OC(n2cnc3c(NCC(C)C)nc(NCCNC(=O)Nc4ccncc4)nc32)C(O)C1O (stereo not drawn)	cAMP, agonist, luciferase	–	pEC50	9.01
Nc1ncnc2[nH]c(/C=C/c3ccc(F)cc3)nc12	cAMP, ELISA	–	pIC50	< 3.41
COc1cccc(-c2c(C#N)c(N)nc(SCc3ncc[nH]3)c2C#N)c1	ligand displacement, radioligand	cell membranes	pKi	7.42
Cc1ccccc1Nc1ncnc2[nH]c(/C=C/c3ccccc3)nc12	cAMP, ELISA	–	pIC50	4.70
CCNC(=O)C1OC(n2cnc3c(NCC(c4ccccc4)c4ccccc4)nc(NCCc4ccc(CCN)cc4)nc32)C(O)C1O (stereo not drawn)	cAMP, agonist, luciferase	–	pEC50	6.74
Oc1ccc(Nc2ncnc3[nH]c(/C=C/c4ccccc4)nc23)cc1	cAMP, ELISA	–	pIC50	4.73
N#Cc1c(N)nc(SCc2ncc[nH]2)c(C#N)c1-c1ccc(O)cc1	phosphorylation in cells, agonist, AlphaScreen	–	pEC50	8.20
Nc1ncnc2[nH]c(/C=C/C3CCCCC3)nc12	cAMP, ELISA	–	pIC50	< 3.39
CCNC(=O)C1OC(n2cnc3c(NC(CC)CC)nc(NCCNC(=O)Nc4ccncc4)nc32)C(O)C1O (stereo not drawn)	cAMP, agonist, luciferase	–	pEC50	9.84
NC(=O)CNC(=O)[C@H]1O[C@@H](n2cnc3c(N)ncnc32)[C@H](O)[C@@H]1O	ligand displacement, radioligand	cell membranes	pKi	6.03
CCNC(=O)C1OC(n2cnc3c(N)nc(NCCNC(=O)Nc4cc[n+](C)cc4)nc32)C(O)C1O (stereo not drawn)	cAMP, agonist, luciferase	–	pEC50	7.79
Nc1nc(SCCc2ccc(S(=O)(=O)O)cc2)nc2c1ncn2C1OC(CO)C(O)C1O (stereo not drawn)	–	–	pEC50	7.90
Nc1ncnc2c1ncn2[C@@H]1O[C@H](C(=O)NCC(F)F)[C@@H](O)[C@H]1O	ligand displacement, radioligand	cell membranes	pKi	7.05
CCNC(=O)C1OC(n2cnc3c(N)nc(C(=O)NCCNC(=O)NC4CCN(c5ccccn5)CC4)nc32)C(O)C1O (stereo not drawn)	cAMP, agonist, luciferase	–	pEC50	5.70
COc1ccc(-c2nc(CSc3nc(N)c(C#N)c(-c4ccccc4)c3C#N)cs2)cc1	ligand displacement, radioligand	cell membranes	pKi	6.76
Nc1ncnc2[nH]c(/C=C/c3ccsc3)nc12	cAMP, ELISA	–	pIC50	< 3.39
CCNC(=O)C1OC(n2cnc3c(N)nc(NCCNC(=O)Nc4ccncc4)nc32)C(O)C1O (stereo not drawn)	cAMP, agonist, luciferase	–	pEC50	7.53

For quick reference, copied from above:
Structure (SMILES)	assay	conditions	endpoint	value
N#Cc1c(N)nc(SCc2ncc[nH]2)c(C#N)c1-c1ccc(O)cc1	phosphorylation in cells, agonist, AlphaScreen	–	pEC50	8.20
Nc1ncnc2[nH]c(/C=C/C3CCCCC3)nc12	cAMP, ELISA	–	pIC50	< 3.39
CCNC(=O)C1OC(n2cnc3c(NC(CC)CC)nc(NCCNC(=O)Nc4ccncc4)nc32)C(O)C1O (stereo not drawn)	cAMP, agonist, luciferase	–	pEC50	9.84
